# Measurements pooled from the literature.
# Lines come from different studies, so protocols differ. ± gives the spread as reported.
# Nuclear receptor subfamily 2 group C member 2 ligand-binding domain: Nuclear receptor subfamily 2 group C member 2, ligand-binding domain (Homo sapiens, UniProt P49116)
# Chain of UniProt P49116 (whole entry, looked up): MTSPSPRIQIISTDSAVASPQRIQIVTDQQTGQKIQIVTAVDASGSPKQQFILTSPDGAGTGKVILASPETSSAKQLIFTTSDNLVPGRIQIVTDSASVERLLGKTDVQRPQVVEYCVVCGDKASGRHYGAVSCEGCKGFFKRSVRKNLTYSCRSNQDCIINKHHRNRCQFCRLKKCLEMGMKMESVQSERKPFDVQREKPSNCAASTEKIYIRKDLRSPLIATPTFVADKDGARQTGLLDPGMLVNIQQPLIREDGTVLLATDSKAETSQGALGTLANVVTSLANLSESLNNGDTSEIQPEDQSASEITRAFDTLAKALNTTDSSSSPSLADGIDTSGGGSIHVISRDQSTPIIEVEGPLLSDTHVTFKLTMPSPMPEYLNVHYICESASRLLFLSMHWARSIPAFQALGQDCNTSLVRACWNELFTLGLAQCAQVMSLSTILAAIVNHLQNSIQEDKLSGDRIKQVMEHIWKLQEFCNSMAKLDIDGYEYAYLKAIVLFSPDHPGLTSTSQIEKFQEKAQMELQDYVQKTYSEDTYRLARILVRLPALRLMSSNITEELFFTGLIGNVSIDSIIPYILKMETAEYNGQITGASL
SMILES,tested on,assay,system,setting,how to read,endpoint,result
Cc1nn(C2CC2)c(=O)c2nn(C)c(Cc3ccc(C(F)(F)F)c(C#N)c3)c12,,,"rat Sprague-Dawley male, plasma","intravenous, 1 mg/kg",,CL,2.31 ± 0.549 mL/min/kg
C[C@H]1Oc2cc(cnc2N)-c2c(nn(C)c2C#N)CN(C)C(=O)c2ccc(F)cc21,,population PK,"moderate renal impairment patients, plasma","oral, 100 mg once daily, cycle 1 day 15, steady state",,CL,194 mL/min
CC(=O)CC(c1ccccc1)c1c(O)c2ccccc2oc1=O (stereo not shown),,,"Sprague-Dawley rat, male, plasma","oral, 0.2 mg/kg, added: miconazole",reference: cpd alone,CL,100%
COCCOC(=O)C1=C(C)NC(C)=C(C(=O)OC(C)C)C1c1cccc([N+](=O)[O-])c1 (stereo not shown),Nuclear receptor subfamily 2 group C member 2 ligand-binding domain,SPR imaging,,,,Kd,0.218 nM
Cn1nc2c(=O)n(C3CC3)cnc2c1[C@](O)(c1cnc(C(F)(F)F)c(Cl)c1)C(F)(F)F,,,"rat Sprague-Dawley male, plasma","intravenous, 1 mg/kg",,CL,0.817 ± 987 mL/min/kg
COc1ccc(Br)cc1S(=O)(=O)Nc1cncc(C(N)=O)c1,,,mouse,"intravenous, 2 mg/kg",,CL,1.83 mL/min/kg
CC1CCc2c(N3CCC(O)CC3)c(F)cc3c(=O)c(C(=O)O)cn1c23 (stereo not shown),Nuclear receptor subfamily 2 group C member 2 ligand-binding domain,SPR imaging,,,,Kd,0.0353 nM
CCc1cnc2c(c1)[C@@H](N1CCOc3c(cc(Cn4ccnc4)cc3-c3cn(C)nc3C(F)(F)F)C1=O)CCC2,,,"CD-1 mouse, male","intravenous, 3 mg/kg, 24 h",,CL,95 mL/min/kg
CCn1ccc2c([C@](O)(c3cnc(C(F)(F)F)c(Cl)c3)C3CC3)n(C)nc2c1=O,,,"rat Sprague-Dawley male, plasma","intravenous, 1 mg/kg",,CL,8.36 ± 1.19 mL/min/kg
O=C(C=Cc1ccccc1)Nc1cc(-c2ccnc(N3CCC(O)CC3)c2)ccn1,,,"Sprague-Dawley rat, female, plasma","oral, 50.0 mg/kg",,CL,606 ± 93.2 mL/min/kg
CCn1cc(-c2cc(Cn3ccnc3)cc3c2OCCN([C@H](c2cc(OC)ccn2)C2CC2)C3=O)c(C(F)(F)F)n1,,,"CD-1 mouse, male","intravenous, 3 mg/kg, 24 h",,CL,29 mL/min/kg
COc1ccc(Cl)cc1S(=O)(=O)Nc1cncc(C(N)=O)c1,,,mouse,"intravenous, 2 mg/kg",,CL,5.14 mL/min/kg
CO[C@H]1/C=C/O[C@@]2(C)Oc3c(C)c(O)c4c(c3C2=O)C2=NC3(CCN(CC(C)C)CC3)NC2=C(NC(=O)/C(C)=C\C=C\[C@H](C)[C@H](O)[C@@H](C)[C@@H](O)[C@@H](C)[C@H](OC(C)=O)[C@@H]1C)C4=O,,,"CD-1 mouse, female, plasma",10 mg/kg single dose,,CL,10.3 mL/min/kg
